Measured values from different studies.
Protocols differ between the studies behind these lines. Numbers after ± are the reported error.
cyp121: Mycocyclosin synthase (cyp121, Mycobacterium tuberculosis, UniProt P9WPP7)

By UniProt entry, the sequences of proteins in these tests, tags left out.
UniProt P9WPP7, whole entry: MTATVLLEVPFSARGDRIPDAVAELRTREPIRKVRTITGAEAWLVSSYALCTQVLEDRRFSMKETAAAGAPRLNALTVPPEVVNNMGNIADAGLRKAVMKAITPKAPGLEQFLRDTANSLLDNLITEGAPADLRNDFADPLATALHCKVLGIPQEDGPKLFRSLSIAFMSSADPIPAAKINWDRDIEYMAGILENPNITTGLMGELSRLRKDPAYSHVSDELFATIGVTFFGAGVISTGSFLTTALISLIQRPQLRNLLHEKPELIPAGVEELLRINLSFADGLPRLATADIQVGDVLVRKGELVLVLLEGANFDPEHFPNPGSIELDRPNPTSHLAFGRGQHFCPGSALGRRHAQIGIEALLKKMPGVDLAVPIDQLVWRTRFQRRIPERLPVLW

Compound = CC(C)[C@H](N)C(=O)N[C@@H](Cc1ccc(O)cc1)C(=O)N[C@@H](Cc1ccc(O)cc1)C(=O)N[C@@H](CCCNC(=N)N)C(=O)O; test system = Actrapid formulation; setting = pH 7; endpoint = solubility; value = ≥ 1000 µM
Compound = NC(=O)CC[C@H](NC(=O)[C@H](CCC(N)=O)NC(=O)[C@H](CC(N)=O)NC(=O)[C@H](CC(N)=O)NC(=O)CNC(=O)Cc1ccc2ccccc2c1)C(=O)N[C@@H](CC(N)=O)C(=O)N[C@@H](Cc1ccc(OP(=O)(O)O)cc1)C(=O)O; assay = TEM; test system = ALP-formed hydrogel in PBS; setting = 0.5 wt %, pH 7.4; endpoint = fiber width; value = 6 ± 2 nm
Compound = CC(C)C[C@@H](NC(=O)[C@H](NC(=O)[C@H]1CCCN1)[C@H](C)O)C(=O)N[C@H](Cc1c[nH]cn1)C(=O)N[C@@H](C(=O)N[C@H](Cc1c[nH]cn1)C(=O)N[C@H](CC(N)=O)C(=O)N[C@H](CCCNC(=N)N)C(=O)N[C@H](CCCNC(=N)N)C(=O)N[C@H](CCCNC(=N)N)C(=O)N[C@H](CCCNC(=N)N)C(=O)N[C@H](CCCNC(=N)N)C(N)=O)[C@H](C)O; test system = healthy human, plasma; setting = oral, 1 160 mg daily, day 1, mean; endpoint = AUC(0-24h); value = 35.6 ng·h/mL
Compound = CN(C(=O)Cc1c(Cl)cccc1Cl)[C@@H]1CCCC[C@H]1N1CCCC1; test system = human liver microsomes; setting = 0.5 µM, together with: NADPH; endpoint = intrinsic clearance; value = 3.7 mL/min/g
Compound = CC(C)(C)N1CCC(NC(=O)c2ccc(C(F)(F)F)cc2Cl)CC1; test system = mouse plasma; setting = 2 µM, 60 min; endpoint = remaining compound; value = 90.1%
Compound = CN(C(=O)Cc1cccc(Cl)c1)[C@@H]1CCCC[C@H]1N1CCCC1; test system = mouse liver microsomes; setting = 0.5 µM, together with: NADPH; endpoint = intrinsic clearance; value = 14 mL/min/g
Compound = c1ccc(-c2ccc3c(c2)CCC3n2ccnc2)cc1 (centres unmarked); target or system = cyp121; assay = binding; endpoint = Kd; value = 5.5 ± 0.9 µM
Compound = Nc1nc(SCC(=O)NCCN2CCCCC2)nc2sc3c(c12)CCC(c1ccccc1)C3 (centres unmarked); test system = mouse liver microsomes; setting = 30 min; endpoint = metabolized compound; value = 58 ± 4%
Compound = Fc1ccc(-c2csc(Cn3ccnc3)c2)cc1; target or system = cyp121; assay = binding; endpoint = Kd; value = 18.9 ± 3.1 µM
Compound = NCCNCCSc1ccccc1; test system = Swiss Albino mouse, female; setting = oral, 400 mg/kg, single dose, non-compartmental; endpoint = apparent volume of distribution (Vz/F); value = 214 L/kg
Compound = CN(C(=O)Cc1cccc2ccccc12)[C@@H]1CCCC[C@H]1N1CCCC1; test system = human liver microsomes; setting = 0.5 µM, together with: NADPH; endpoint = intrinsic clearance; value = 2.3 mL/min/g

Some of these lines once more:
Compound = c1ccc(-c2ccc3c(c2)CCC3n2ccnc2)cc1 (centres unmarked); target or system = cyp121; assay = binding; endpoint = Kd; value = 5.5 ± 0.9 µM
Compound = Nc1nc(SCC(=O)NCCN2CCCCC2)nc2sc3c(c12)CCC(c1ccccc1)C3 (centres unmarked); test system = mouse liver microsomes; setting = 30 min; endpoint = metabolized compound; value = 58 ± 4%
